Measurements of several laboratories.
Every numbered part comes from another study and shows a few of its results, in no order.

Study 1
Target: Histone acetyltransferase KAT6A, both winged helices, GST fusion (KAT6A, Homo sapiens, UniProt Q92794, residues 1-181)
Method: protein binding microarray
Molecule type: double-stranded DNA, one strand shown
Medium: in vitro
Concentration: not given
Setting: 8-mer, flanks averaged, mean of 2 arrays, mostly near background
Reference: not given
Reading: higher = stronger binding
Residues (chain): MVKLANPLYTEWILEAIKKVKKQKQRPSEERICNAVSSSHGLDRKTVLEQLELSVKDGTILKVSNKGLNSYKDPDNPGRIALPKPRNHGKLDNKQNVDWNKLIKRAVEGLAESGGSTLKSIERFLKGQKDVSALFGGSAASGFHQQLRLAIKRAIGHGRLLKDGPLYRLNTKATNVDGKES
Oligonucleotide	E-score
CATAATTA	-0.0336
CGTCACTA	0.153
GCCCATAA	0.134

Study 2
Target: Sal-like protein 4, full length isoform B (SALL4, Homo sapiens, UniProt Q9UJQ4-2, residues 1-616)
Method: universal PBM
Molecule type: double-stranded DNA, one strand shown
Medium: in vitro
Concentration: not given
Setting: 8-mer, flanks averaged, mean of replicates
Reading: higher = stronger binding
Construct (chain): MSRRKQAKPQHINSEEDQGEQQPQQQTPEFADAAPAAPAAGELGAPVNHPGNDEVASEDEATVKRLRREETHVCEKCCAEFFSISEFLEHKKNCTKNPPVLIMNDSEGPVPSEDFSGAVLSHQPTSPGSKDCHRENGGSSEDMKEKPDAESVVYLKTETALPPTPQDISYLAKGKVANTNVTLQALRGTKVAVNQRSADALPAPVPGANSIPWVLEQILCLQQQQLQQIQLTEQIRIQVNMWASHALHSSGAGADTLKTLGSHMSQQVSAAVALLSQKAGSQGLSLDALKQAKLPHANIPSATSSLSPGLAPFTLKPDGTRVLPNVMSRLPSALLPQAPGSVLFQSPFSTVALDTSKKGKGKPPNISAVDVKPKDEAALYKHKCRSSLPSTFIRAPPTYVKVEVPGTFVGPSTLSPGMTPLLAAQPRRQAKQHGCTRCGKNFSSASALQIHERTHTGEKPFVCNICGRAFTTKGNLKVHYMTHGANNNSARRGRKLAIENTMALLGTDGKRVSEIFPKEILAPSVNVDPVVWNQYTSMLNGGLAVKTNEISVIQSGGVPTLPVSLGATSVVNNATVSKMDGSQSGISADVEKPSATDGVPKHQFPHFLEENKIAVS
Oligonucleotide	E-score
ATACCGTA	0.123
CTGCGATA	-0.0368
AGGGACAG	-0.16
CTGGACAG	-0.205

Study 3
Target: Interferon regulatory factor 5, full length, phosphomimetic (IRF5, Homo sapiens, UniProt Q13568-2, residues 1-514, S451D/S453D/S456D/S462D)
Method: protein-binding microarray
Molecule type: double-stranded DNA, one strand shown
Medium: in vitro
Concentration: 940 nM top
Setting: 60-bp whole probe
Together with: salmon DNA 0.4 mg/ml
Reference: random background probes
Reading: higher = stronger binding
Oligonucleotide	fitted relative affinity [z-score]
GCCTAGCACATAGGTCTCCTTATCCTTTAGTGCTAGGTCTTGATTCGCTTGACGCTGCTG	0.502
GCCTAGCACTTAGATCTCAGACTGGATAAGTGCTAGGTCTTGATTCGCTTGACGCTGCTG	-0.3
GCCTAGCACTCACCTCTAGGTTTTCTACTGTGCTAGGTCTTGATTCGCTTGACGCTGCTG	0.154

Single results of other studies
Substance	target	assay	test system	setting	how to read	measurement	value
PhoQ, residues 284 288 289 292 302 303 SSTLSG	PhoP, residues 12 14 15 18 19 SGWQI (Escherichia coli, UniProt P23836)	Sort-seq, measured: YFP reporter	E. coli	PhoQ-PhoP variant library, together with: 10 µM Mg2+	reference: high Mg2+ state, higher = stronger signaling	fold induction	7.36

Excerpt of the above (study 3):
Oligonucleotide	fitted relative affinity [z-score]
GCCTAGCACTCACCTCTAGGTTTTCTACTGTGCTAGGTCTTGATTCGCTTGACGCTGCTG	0.154
